Published values gathered from unrelated publications.
± marks the error that the study gave.
Cell line: Vero E6

`Cc1ccc(NCCN(C)CCNc2ccnc3cc(Cl)ccc23)c2c(=O)c3ccccc3sc12` has a cytotoxicity of < 20% (30.0 µM, 72 (unit not given)).
Under “first cytotoxic concentration”, `CCN(CC)CCOC1CCC2(C)C(=CCC3C4CCC(=O)C4(C)CCC32)C1` (centres unmarked) is recorded as 20 µM (3 days).
For `Cc1ccc(NCCN(C)CCNc2ccnc3cc(Cl)ccc23)c2c(=O)c3ccccc3sc12`, cytotoxicity read “not toxic” (nuclei count; 25 µM).
`Clc1ccc(CN2CCCC3=CC4CC(CN5CCCCC45)C32)c(Cl)c1` (centres unmarked) gave a CC50 of 177 µM.
The CC50 of `O=C(CN1CCn2c(nnc2C(F)(F)F)C1)SC1=NC(c2ccc(C(F)(F)F)cc2)C(C(=O)Nc2ccc(S(=O)(=O)O)cc2)=C(C(F)(F)F)N1` (centres unmarked) is reported as 247 µM (MTT; 48 h).
The CC50 of `CC12OOC(C)(OO1)C2CCC(=O)OCCNc1ccnc2cc(Cl)ccc12` (centres unmarked) is reported as ~37 µM (72 h).
With `COC(=O)c1cc2c(=O)n3ccccc3nc2n1Cc1ccccc1` the IC50 was > 200 µM (MTT).
`C=Cc1c(C)c2cc3nc(cc4[nH]c(cc5nc(cc1[nH]2)C(C)=C5CCC(=O)O)c(CCC(=O)OC)c4C)[C@@]1(C)C3=CC=C(C(=O)OC)[C@H]1C(=O)OC` has a viability reduction of ~22% (cytotoxicity; 30.0 µM, 72 (unit not given)).
`C[C@H]1[C@H](OC(=O)CC[C@@H](C)C2CCC3C4C(CC[C@@]32C)[C@@]2(C)CC[C@@H](O)CC2C[C@@H]4O)O[C@@H]2O[C@@]3(C)CCC4[C@H](C)CC[C@@H]1[C@]42OO3` (some centres unmarked) gave an IC50 of ~100 µM (cytotoxicity; 24 h).
For `Cn1nc(-c2ccc(C(F)(F)F)cc2)nc2c(=O)n(C)c(=O)nc1-2`, the cytotoxicity was 99.7% (concentration not given).
`COc1ccc(C(=O)OC2C(OC3C(O)COC(OC4CC5C6CC=C7CC(O)CCC7(C)C6CCC5(C)C4(O)C(C)C(=O)CCC(C)C)C3OC(C)=O)OCC(O)C2O)cc1` (centres unmarked) — result for “first cytotoxic concentration”: 0.007 µM (3 days).
With `CC12OOC(C)(OO1)C2CCC(=O)NCCCNc1ccnc2cc(Cl)ccc12` (centres unmarked) the CC50 was 28 ± 2.9 µM (72 h).
`NS(=O)(=O)c1cccc2c1C(=O)c1cccc(O)c1C2=O` has a cytotoxicity of 100% (concentration not given).
`COC(=O)CC[C@@H](C)C1CCC2C3C(CC[C@@]21C)[C@@]1(C)CC[C@@H](n2cc(CO[C@H]4O[C@@H]5O[C@@]6(C)CCC7[C@H](C)CC[C@@H]([C@H]4C)[C@]75OO6)nn2)CC1C[C@@H]3O` (some centres unmarked) has an IC50 of > 100 µM (cytotoxicity; 24 h).
